Published values pooled from the literature.
Protocols differ between the studies behind these lines. ± gives the spread as reported.
Route: intravenous

With O=C([O-])CN1CCN(CC(=O)[O-])CCN(CC(=O)NC[C@H]2CC[C@H](C(=O)N[C@H](Cc3cnc4ccccc4c3)C(=O)NCCCC[C@H](NC(=O)N[C@@H](CCC(=O)O)C(=O)O)C(=O)O)CC2)CCN(CC(=O)[O-])CC1.[64Cu+2] the tissue uptake was 2.16 %ID/g (ex vivo gamma counting; 22Rv1 tumour-bearing mice, blood; 0.74 MBq, 2 h post-injection).
O=C(NCC1OC2CCC=CCCC2O1)c1ccc([18F])nc1 (centres unmarked) has a tissue uptake of 5.1 ± 0.2 %ID/g (healthy female BALB/c nude mice, large intestine; 7.4 MBq per mouse, 120 min).
With COc1ccc(Nc2nc(Nc3ccc(OCCOCC[18F])cc3)ncc2Br)cc1 the tissue uptake was 1.73 ± 0.25 %ID/g (ICR mice, S180 tumour-bearing, liver; 370 kBq, 120 min).
The tissue uptake of CCCC[C@H](NC(=O)CNC(=O)CNC(=O)[C@H](CCCCNC(=O)[C@H](CC(=O)O)NC(=O)C(C)c1ccc(CC(C)C)cc1)NC(=O)CN1CCN(CC(=O)O)CCN(CC(=O)O)CCN(CC(=O)O)CC1)C(=O)N[C@H]1CC(=O)NCCCC[C@@H](C(N)=O)NC(=O)[C@H](Cc2c[nH]c3ccccc23)NC(=O)[C@H](CCCNC(=N)N)NC(=O)[C@@H](Cc2ccccc2)NC(=O)[C@H](Cc2c[nH]cn2)NC1=O (some centres unmarked) [lutetium-177 labelled] is reported as 0.24 ± 0.06 %ID/g (C57 mice, tumour-bearing, stomach; 0.037 MBq, 24 h).
The tissue uptake of CCCC[C@H](NC(=O)COCCOCCNC(=O)CN1CCN(CC(=O)O)CCN(CC(=O)O)CC1)C(=O)N[C@H]1CC(=O)NCCCC[C@@H](C(N)=O)NC(=O)[C@H](Cc2c[nH]c3ccccc23)NC(=O)[C@H](CCCNC(=N)N)NC(=O)[C@@H](Cc2ccccc2)NC(=O)[C@H](Cc2c[nH]cn2)NC1=O [fluorine-18 labelled] is reported as 1.03 ± 0.13 %ID/g (C57 mice B16-F10 melanoma, heart; 0.37 MBq, 0.5 h).
The tissue uptake of Cc1cc(C)n(CCN(CCN)CCCCCCNC(=O)[C@@H](N)Cc2c[nH]cn2)n1.[99Tc+].[C-]#[O+].[C-]#[O+].[C-]#[O+] is reported as 4 ± 0.46 %IA/g (BALB/c nude mice, A549 xenograft, kidney; 24 h).
With COc1ccc(Nc2nc(Nc3ccc(OCCOCCOCC[18F])cc3)ncc2Br)cc1 the tissue uptake was 2.58 ± 0.29 %ID/g (ICR mice, S180 tumour-bearing, muscle; 370 kBq, 60 min).
For CCCC[C@H](NC(=O)CCCCCCCNC(=O)CN1CCN(CC(=O)O)CCN(CC(=O)O)CC1)C(=O)N[C@H]1CC(=O)NCCCC[C@@H](C(N)=O)NC(=O)[C@H](Cc2c[nH]c3ccccc23)NC(=O)[C@H](CCCNC(=N)N)NC(=O)[C@@H](Cc2ccccc2)NC(=O)[C@H](Cc2c[nH]cn2)NC1=O [fluorine-18 labelled], the tissue uptake was 3.31 ± 0.12 %ID/g (C57 mice B16-F10 melanoma, liver; 0.37 MBq, 1 h).

Repeated from above:
The tissue uptake of CCCC[C@H](NC(=O)CNC(=O)CNC(=O)[C@H](CCCCNC(=O)[C@H](CC(=O)O)NC(=O)C(C)c1ccc(CC(C)C)cc1)NC(=O)CN1CCN(CC(=O)O)CCN(CC(=O)O)CCN(CC(=O)O)CC1)C(=O)N[C@H]1CC(=O)NCCCC[C@@H](C(N)=O)NC(=O)[C@H](Cc2c[nH]c3ccccc23)NC(=O)[C@H](CCCNC(=N)N)NC(=O)[C@@H](Cc2ccccc2)NC(=O)[C@H](Cc2c[nH]cn2)NC1=O (some centres unmarked) [lutetium-177 labelled] is reported as 0.24 ± 0.06 %ID/g (C57 mice, tumour-bearing, stomach; 0.037 MBq, 24 h).
